Measured values from different studies.
Compare with care: the assays were run in different laboratories. Values joined by “and” are separate records of one study, mostly repeats; a detail may differ.

SMILES | target or system | assay | test system | setting | endpoint | value
CC(C)c1nc(N(C)S(C)(=O)=O)nc(-c2ccc(F)cc2)c1/C=C/[C@@H](O)C[C@@H](O)CC(=O)O | – | – | healthy volunteers, plasma | oral, 10 mg, day 8, BCRP probe, added: momelotinib, days 4-8, 200 mg, once daily | AUC(0-last) | 101 ng·h/mL
COc1ncc(-c2nc3c(n2C(C)C)[C@H](c2ccc(Cl)cc2)N(c2cc(Cl)cn(C)c2=O)C3=O)c(OC)n1 | – | LC-MS/MS | human, plasma | oral, 7.5 mg, cycle 1 day 1, low-dose arm | AUC(0-last) | 598 ng·h/mL
CC[C@H](C)CCCCC(=O)N[C@@H](CCN)C(=O)N[C@H](C(=O)N[C@@H](CCN)C(=O)N[C@H]1CCNC(=O)[C@H]([C@@H](C)O)NC(=O)[C@H](CCN)NC(=O)[C@H](CCN)NC(=O)[C@H](CC(C)C)NC(=O)[C@@H](Cc2ccccc2)NC(=O)[C@H](CCN)NC1=O)[C@@H](C)O | – | – | ESKD on long-term intermittent haemodialysis, plasma | intravenous infusion, 0.75 mg/kg, geometric least squares mean | AUC(0-last) | 30500 ng·h/mL
NC1(C(=O)N[C@@H](CCO)c2ccc(Cl)cc2)CCN(c2nc[nH]c3nccc2-3)CC1 | – | – | human, plasma | oral, 400 mg single dose | AUC(0-last) | 3550 ng·h/mL and 8490 ng·h/mL and 6840 ng·h/mL and 5980 ng·h/mL and 2890 ng·h/mL and 4540 ng·h/mL
O=C(O)C(Cc1c[nH]c2ccccc12)N1C(=O)c2ccccc2C1=O (stereo not drawn) | OCI-Ly1 | – | – | 0.5 µM, 120 h | viability | 168%
C[C@@]1(c2cc(NC(=O)c3ccc(C#N)cn3)ccc2F)C=CSC(N)=N1 | – | – | elderly men and women, plasma | oral, 1 mg single dose | AUC(0-last) | 54.7 ng·h/mL
C=C1C(=O)O[C@@H](CCC)[C@@H]1C(=O)O (racemic) | OCI-Ly1 | – | – | 0.5 µM, 120 h | viability | 173%
CC(C)c1nc(N(C)S(C)(=O)=O)nc(-c2ccc(F)cc2)c1/C=C/[C@@H](O)C[C@@H](O)CC(=O)O | – | – | Wistar albino rat, both sexes, plasma | oral, 20 mg/kg | AUC(0-last) | 10100 ng·h/mL and 9090 ng·h/mL and 4410 ng·h/mL and 17700 ng·h/mL and 7420 ng·h/mL
C[C@H]1CN(C(=O)CC#N)[C@]12CCN(c1ncnc3[nH]ccc13)C2 | – | – | healthy Japanese males, plasma | oral, 25 mg single dose | AUC(0-last) | 951 ng·h/mL
CCCCCCCOc1ccc(CCC(N)(CO)CO)cc1C(F)(F)F.Cl | – | – | male Sprague-Dawley rat, plasma | oral, 1 mg/kg, single dose | AUC(0-last) | 23.9 ng·h/mL
CC(=O)N[C@H]1CC[C@H](NC(=O)CN2CCN(c3nncc(-c4ccc(C)cc4)n3)CC2)CC1 | – | – | women, plasma | oral, 100 mg single dose, study | AUC(0-last) | 6350 ng·h/mL
CCCCCCCCc1ccc(CCC(N)(CO)CO)cc1 | – | – | Sprague-Dawley rat, heart | oral, 1 mg/kg, single dose | AUC(0-last) | 11400 ng·h/g
COc1cccc(-c2n[nH]c(SCc3ccccn3)n2)c1OC | – | – | Sprague-Dawley rat, female, plasma | oral gavage, 100 mg/kg | AUC(0-last) | 239000 ng·h/mL
CCc1cc(C(=O)NC)c2nccc(N3CCc4c(cc(Cn5ccnc5)cc4-c4cn(C)nc4C(F)(F)F)C3=O)c2c1 | – | – | Sprague Dawley rat, male, plasma | oral, 100 mg/kg twice daily, day 1 | AUC(0-last) | 117000 ng·h/mL
CCn1cc(C(=O)N2CCOCC2)c(=O)c2cc(NC3Cc4ccccc4C3)cnc21 | – | – | human, fasted | oral suspension, 150 mg single dose, arithmetic mean | AUC(0-last) | 1820 ng·h/mL

For quick reference, copied from above:
SMILES | target or system | assay | test system | setting | endpoint | value
C[C@@]1(c2cc(NC(=O)c3ccc(C#N)cn3)ccc2F)C=CSC(N)=N1 | – | – | elderly men and women, plasma | oral, 1 mg single dose | AUC(0-last) | 54.7 ng·h/mL
C=C1C(=O)O[C@@H](CCC)[C@@H]1C(=O)O (racemic) | OCI-Ly1 | – | – | 0.5 µM, 120 h | viability | 173%
